Results collected from several papers.
Parts stem from different laboratories: compare values within a part only. Positions count from the first letter of the parent shown.

Study 1 — target: CCND2, cyclin fold, Cln2 fusion (human); technique: yeast growth competition, sequencing; matrix: yeast; notes: weak parent motif; baseline: not given; reading: higher = stronger binding
Parent: CDC6 docking peptide (human); TLKGRRLVFDNQL; partner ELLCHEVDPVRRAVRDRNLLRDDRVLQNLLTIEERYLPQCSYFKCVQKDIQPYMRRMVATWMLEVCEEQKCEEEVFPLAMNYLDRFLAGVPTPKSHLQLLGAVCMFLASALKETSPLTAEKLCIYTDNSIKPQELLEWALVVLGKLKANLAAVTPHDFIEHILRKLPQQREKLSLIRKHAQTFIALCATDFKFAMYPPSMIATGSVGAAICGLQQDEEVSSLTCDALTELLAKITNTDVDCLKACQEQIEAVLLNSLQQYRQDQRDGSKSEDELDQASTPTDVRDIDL
| Substitution | normalised enrichment score |
| --- | --- |
| MLKGRRLVFDNQL [T1M] | 0.0249 |
| TLKGRRLIFDNQL [V8I] | 0.101 |
| TLKGRRLVFDNEL [Q12E] | -0.141 |
| TLWGRRLVFDNQL [K3W] | 0.0879 |
| TLKGRRLCFDNQL [V8C] | 0.652 |
| TPKGRRLVFDNQL [L2P] | 0.403 |
| TLKGRRLVFYNQL [D10Y] | 0.879 |
| TLKGRRLVFDNIL [Q12I] | 0.224 |
| GLKGRRLVFDNQL [T1G] | 0.319 |
| TLKGRRCVFDNQL [L7C] | 0.301 |
| TLKGRRLVFANQL [D10A] | -0.00411 |
| TVKGRRLVFDNQL [L2V] | 0.513 |
| TLKGRRLVFMNQL [D10M] | 0.592 |
| TLKGRRLVFWNQL [D10W] | 0.313 |
| TLKGRQLVFDNQL [R6Q] | 0.419 |
| TLKGRRTVFDNQL [L7T] | -0.251 |
| TLKGRRLVFDPQL [N11P] | -0.0228 |
| TFKGRRLVFDNQL [L2F] | -0.0208 |
| TLKGRHLVFDNQL [R6H] | 0.0598 |
| WLKGRRLVFDNQL [T1W] | 0.368 |
| TLKGRRLVFRNQL [D10R] | 0.272 |
| TEKGRRLVFDNQL [L2E] | -0.0524 |
| TLKGRRLVFDCQL [N11C] | 0.524 |
| TSKGRRLVFDNQL [L2S] | -0.157 |
| TLKWRRLVFDNQL [G4W] | 0.074 |

Study 2 — technique: universal PBM; molecule type: double-stranded DNA, one strand shown; matrix: in vitro; tested at: 600 nM; reading: higher = stronger binding
Target: Sal-like protein 4, full length isoform A (SALL4, Homo sapiens, UniProt Q9UJQ4, residues 1-1053)
Chain of UniProt Q9UJQ4 (whole entry, looked up): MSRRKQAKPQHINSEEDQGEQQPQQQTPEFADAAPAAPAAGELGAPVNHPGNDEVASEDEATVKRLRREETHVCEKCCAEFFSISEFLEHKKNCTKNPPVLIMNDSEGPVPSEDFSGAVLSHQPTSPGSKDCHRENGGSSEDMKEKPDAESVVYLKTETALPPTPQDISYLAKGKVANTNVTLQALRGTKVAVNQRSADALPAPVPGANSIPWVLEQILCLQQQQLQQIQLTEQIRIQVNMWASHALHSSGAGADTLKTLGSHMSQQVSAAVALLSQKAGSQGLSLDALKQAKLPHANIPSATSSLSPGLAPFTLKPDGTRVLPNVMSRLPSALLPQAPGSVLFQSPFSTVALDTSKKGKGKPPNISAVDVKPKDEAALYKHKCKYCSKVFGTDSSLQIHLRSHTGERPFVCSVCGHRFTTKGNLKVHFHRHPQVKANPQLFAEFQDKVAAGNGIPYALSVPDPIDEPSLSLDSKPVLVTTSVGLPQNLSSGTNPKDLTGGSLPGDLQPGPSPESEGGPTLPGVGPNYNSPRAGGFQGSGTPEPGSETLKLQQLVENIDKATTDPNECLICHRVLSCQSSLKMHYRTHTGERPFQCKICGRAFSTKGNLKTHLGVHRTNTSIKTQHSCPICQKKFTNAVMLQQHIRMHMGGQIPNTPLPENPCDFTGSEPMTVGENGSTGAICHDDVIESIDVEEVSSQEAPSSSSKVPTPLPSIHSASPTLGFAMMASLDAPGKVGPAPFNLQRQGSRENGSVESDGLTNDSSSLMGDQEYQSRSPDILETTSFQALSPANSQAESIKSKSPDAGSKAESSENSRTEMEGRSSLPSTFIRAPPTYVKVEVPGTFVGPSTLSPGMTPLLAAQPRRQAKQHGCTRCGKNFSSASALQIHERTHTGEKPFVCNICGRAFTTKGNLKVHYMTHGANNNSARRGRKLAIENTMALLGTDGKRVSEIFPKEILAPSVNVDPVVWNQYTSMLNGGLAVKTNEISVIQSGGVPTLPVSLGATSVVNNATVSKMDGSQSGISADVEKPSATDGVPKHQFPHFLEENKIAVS
Notes: 8-mer, flanks averaged, mean of replicates
| Sequence | E-score |
| --- | --- |
| CTGACACA | 0.0104 |
| CAAAGGCG | -0.135 |
| AGTAATGC | 0.0169 |
| AATGTTTA | 0.322 |
| GATCCTTA | 0.0111 |
| AAGAAGTC | 0.113 |
| CCAATTGC | -0.0284 |
| CCGCACAA | -0.074 |
| ACAGTCGG | -0.142 |
| TAGGACAA | 0.208 |
| ATCCTATC | 0.151 |
| CACTTTAA | 0.212 |
| CAGACCTC | -0.237 |
| CCAACGGG | -0.276 |
| ATTGAAAA | 0.321 |
| ACTCTCCA | 0.117 |
| AGGCATCA | -0.114 |
| GACTTACA | 0.144 |
| CATAGATC | 0.0413 |

Study 3 — technique: RNA Bind-n-Seq; molecule type: RNA; matrix: in vitro; tested at: 200 nM; notes: whole 134-nt RNA, ends assumed; together with: 150 mM KCl; baseline: input library; reading: higher = stronger binding
Target: Ras GTPase-activating protein-binding protein 1, full length (G3BP1, Homo sapiens, UniProt Q13283)
Chain of UniProt Q13283 (whole entry, looked up): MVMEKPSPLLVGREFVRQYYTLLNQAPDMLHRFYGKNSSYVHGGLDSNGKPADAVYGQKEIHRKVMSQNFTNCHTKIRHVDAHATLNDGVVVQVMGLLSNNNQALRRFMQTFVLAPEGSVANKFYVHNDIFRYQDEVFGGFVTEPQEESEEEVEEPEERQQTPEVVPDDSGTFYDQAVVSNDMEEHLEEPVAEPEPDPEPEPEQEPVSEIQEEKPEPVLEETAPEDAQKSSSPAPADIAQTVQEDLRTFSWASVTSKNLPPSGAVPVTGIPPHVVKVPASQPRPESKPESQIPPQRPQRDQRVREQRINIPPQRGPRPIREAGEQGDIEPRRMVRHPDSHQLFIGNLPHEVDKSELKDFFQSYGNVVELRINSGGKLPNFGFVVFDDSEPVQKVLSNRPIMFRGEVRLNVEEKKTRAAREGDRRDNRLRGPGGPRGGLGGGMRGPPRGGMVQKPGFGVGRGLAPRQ
Shared flanks, not repeated: GGGAGUUCUACAGUCCGACGAUC … UGGAAUUCUCGGGUGUCAAGG
| Sequence | log2 enrichment |
| --- | --- |
| CAAGUCCUGUGCUACACAUCGUAUGUACCGAAUCGGGUGGGUUUUUUUGGGUGGGAAAGUAUUAUGUUACGCCGUUCGGAUCUGCACUUC | 0.244 |
| CAAGUCCUGUGCUACACAUCGUAUGUACCGAAUCGGGGCCCGGCCCGGCCCGGGGAAAGUAUUAUGUUACGCCGUUCGGAUCUGCACUUC | -0.735 |
| GUCCUGUGCUACACAUCGUAUGUACCGAAUCGGGGUUUUUGGGUUUUUGGUUUUUGGGAAAGUAUUAUGUUACGCCGUUCGGAUCUGCAC | -0.85 |
| UGUGCUACACAUCGUAUGUACCGAAUCGGGGUUUUUGGGGUUUUUUUGGGGUUUUUUUGGGGAAAGUAUUAUGUUACGCCGUUCGGAUCU | -0.427 |
| UCCUCAAGUCCUGUGCUACACAUCGUAUGUACCGAAUCGGCGGGGCGGCGGGAAAGUAUUAUGUUACGCCGUUCGGAUCUGCACUUCCAG | 0.116 |
| AGUCCUGUGCUACACAUCGUAUGUACCGAAUCGGUUUUGGGUUUUGGGGUUUUGGGGAAAGUAUUAUGUUACGCCGUUCGGAUCUGCACU | -0.483 |
| CACAGACAACACGCACCCACACAGACACAGAGGGAAGGGGUUGGGAUGGGGACAGGGUGCACAGCAGGGCGGGGUAGGACCACAGCCCCU | 1.86 |
| GUCCUGUGCUACACAUCGUAUGUACCGAAUCGGGGAAAAGGGGAAAAGGGGAAAAGGGGAAAGUAUUAUGUUACGCCGUUCGGAUCUGCA | 0.468 |
| CACAGACAACACGCACCCACACAGACACAGAGGGAAGGGGUUGGGAUGGGGACAGGGUGCACAGCAAGGCGGGGUAGGACCCCAGCCCCU | 1.78 |
| UAACUUUAGAGGAGGAUCUGAUGGAUAUGGCAGCGGACGUGGAUUUGGGGAUGGCUAUAAUGGGUAUGGAGGAGGACCUGGAGGUGGCAA | 0.366 |
| CAUAGACAACACGCACCCACACAGACACAGAGGGAAGGGGUUGGGAUGGGGACAGGGUGCACAGCAGGGCGGGGUAGGACCCCAGCCCCU | 1.92 |
| UGGCUUUCACCCCCAACCAGUGACCAAAGACUUGACCACUCAAAGUCCAGCUCCCCAGAACACUGCUCGACAUGGACACCGGUGUGAUUG | 0.934 |
| GCAGGAAGUAAAAACAAAUGGAAAUGCUUCGGAUAGUGGCAGGGGUGGGGGUUGCUAAGGACAGGGUGGGAUGGGAGUGGGUAAAGAGUU | 1.04 |
| CACAGACAACAAGCACCCACACAGACACAGAGGGAAGGGGUUGGGAUGGGGACAGGGUGCACAGCAGGGCGGGGUAGGACCCCAGCCCCU | 1.92 |

Study 4 — technique: RNA Bind-n-Seq; molecule type: RNA; matrix: in vitro; tested at: 365 nM; baseline: no-protein control; reading: higher = stronger binding
Target: RNA binding protein fox-1 homolog 2, RRM domain, GST-SBP tag (RBFOX2, Homo sapiens, UniProt O43251-10, residues 100-194)
Notes: natural RNA segment, single round, ends assumed
Shared flanks, not repeated: GGGAGUUCUACAGUCCGACGAUC … UGGAAUUCUCGGGUGCCAA
Construct (chain): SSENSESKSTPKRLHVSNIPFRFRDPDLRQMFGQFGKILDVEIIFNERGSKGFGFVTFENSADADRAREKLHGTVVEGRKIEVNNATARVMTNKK
| Sequence | RBNS enrichment (R) |
| --- | --- |
| AUGAUUAGUAUUACUUGAAUGCAUCCAGAGGAUAUUUAAACCAAAAUGAAAAACCAGAAGGCCAUUUGGUGUCCCCCCUCCCAGGUGUCCCCUUGUAGCAUAUGCAUUAU | 1.2 |
| UCUGGCGGGCUGUCCUCCUUGGUGGGAGCUGUCCUGCACACUGUAGGAUGCUUAAAGGUAUCCCUGGCCUCCACCCACCCCUAGCCAGCAGCUCCCAGUCAGACAACAGC | 0.246 |
| UUCACAGGCUCCUCUGGCCCUGACCCCUCUUGCUCGUUCCCCUUCCUUCCGCAGCUCCUAGUCUCGUCCGUGACUUUCCGGUUGCCCUGGAUCUCAGAAUAUAUUCGUCC | 0.418 |
| GAGGCAAGGCAAAGUGAUAGUACACGGAAGCAGAACCGGAAACACCCAGGAACUGUUCAGAAAUCUCAGAAGAAAUCUGCUUCUCUUCGAUGGAAAGAUAUAAUUAACGA | 0.369 |
| GACCUGUGGCCUGGUGGGACCAGGGCUUCAGGAGCCACAGGAUGGUACAAGCCUCGACAGACACGUUCUGUCAGCACUUGCCCCGGCCACCUCAUUCUGGUUUCAGUGUU | 0.241 |
| GAGGGCUGAAUUGUUUUGCAGAGGAAGAUGGCAUCUGUGCUUUAAAUUUCUCAUUACUGGGUUAGAAAACAAAGAGGGAUUGCCCUGCACAUUUUCUUUUGUGCUUUUAA | 0.993 |
| AGCUGGUAGUUUGACCUCCGUUGGUGCAAUGCCAGAGAUGGGAUUGUCAGCCACCACACUGCCACCACCCUGCACACAGUCUGGGUCCCUCCGAGAGAAGCACGCCAACC | 9.13 |
| GUAGACACUUCUGGGACGUUGCUGCGCAUGCAGCAUCGGAAGGCAGCACAGGCGCUGGCAGUGGAUACAGCAGGCCUGUCUAGUCUCCCACAGUGGGUUUGGCUGAUUGU | 0.75 |
| UAUAUGACUACGGCUCAUGCUUCCAAGGUCAGCUCACAUGUGACCUCUGUGAGCUGUUCCCUCGCCUGAAUUCAUUGCAUCUUACACCUUGGCAUGCCUUGCUCACAAUA | 41.1 |
| AUGUUAGGCACUCCUCUGACCUGAAUAAGUUUCCUUUCUCCUUUAUCAGUUCAAGGUGGGAGUCUUUGCUCUCAUCACCUGCAGUUCCACCUUGUGUUCAGAAAGCAAAA | 0.356 |
| UGAAAAAUCAUCGAAAUGUAUAAAAAUUGCAGUAUCUUUAAAAUCAGUAAAAUGGACUAGCAUAUUAUUUAUCUUGUUCUUCAGUUAACAACUUUGUGUUCUCUGUGGGA | 0.609 |
| CUUAUUUUGAUAUAGCAUUUGUUUCCUAAAUGUUUACUAAUCACUUUAUGCCAAAUGUCUUGCAGAUGUUAUUUUUAAACUUAACUGAAUUUUUACAAAUAUAAAAAGGA | 1.42 |

Further values, each from its own experiment
| Molecule | target or system | test | system | setting | scale | endpoint | value |
| --- | --- | --- | --- | --- | --- | --- | --- |
| AP2B1 (Homo sapiens, UniProt P63010) | AP2M1 (Homo sapiens, UniProt Q96CW1) | cross-linking MS |  | hits only |  | interaction screen | cross-linked |
| PhoQ, residues 284 288 289 292 302 303 ALASRC | PhoP, residues 12 14 15 18 19 SEGLL (Escherichia coli, UniProt P23836) | Sort-seq, measured: YFP reporter | E. coli | PhoQ-PhoP variant library, together with: 10 µM Mg2+ | baseline: high Mg2+ state, higher = stronger signaling | fold induction | 9.09 |
| ALDH1B1 (Homo sapiens, UniProt P30837) | PGD (Homo sapiens, UniProt P52209) | cross-linking MS | cell fractions | together with: DMTMM |  | cross-linked residues | K344 to E46 |
| SNRPA1 (Homo sapiens, UniProt P09661) | SF3A3 (Homo sapiens, UniProt Q12874) | cross-linking MS |  | hits only |  | interaction screen | cross-linked |
| PRDX2 (Homo sapiens, UniProt P32119) | PRDX1 (Homo sapiens, UniProt Q06830) | cross-linking MS |  | hits only |  | interaction screen | cross-linked |

Some of these lines once more (study 1):
| Substitution | normalised enrichment score |
| --- | --- |
| TLKGRRLVFYNQL [D10Y] | 0.879 |
| TLKGRRLVFDNIL [Q12I] | 0.224 |
| GLKGRRLVFDNQL [T1G] | 0.319 |
| TLKGRRCVFDNQL [L7C] | 0.301 |
| TLKGRRLVFANQL [D10A] | -0.00411 |
| TVKGRRLVFDNQL [L2V] | 0.513 |
| TLKGRRLVFMNQL [D10M] | 0.592 |
| TLKGRRLVFWNQL [D10W] | 0.313 |
| TLKGRQLVFDNQL [R6Q] | 0.419 |
| TLKGRRTVFDNQL [L7T] | -0.251 |
